Measurements of several laboratories.
Each line is one published result; not all experiments were run side by side.
Technique: steady-state kinetics
B1: asnB E349D (Escherichia coli, UniProt P22106); chain CSIFGVFDIKTDAVELRKKALELSRLMRHRGPDWSGIYASDNAILAHERLSIVDVNAGAQPLYNQQKTHVLAVNGEIYNHQALRAEYGDRYQFQTGSDCEVILALYQEKGPEFLDDLQGMFAFALYDSEKDAYLIGRDHLGIIPLYMGYDEHGQLYVASEMKALVPVCRTIKEFPAGSYLWSQDGEIRSYYHRDWFDYDAVKDNVTDKNELRQALEDSVKSHLMSDVPYGVLLSGGLDSSIISAITKKYAARRVEDQERSEAWWPQLHSFAVGLPGSPDLKAAQEVANHLGTVHHEIHFTVQEGLDAIRDVIYHIETYDVTTIRASTPMYLMSRKIKAMGIKMVLSGDGSDEVFGGYLYFHKAPNAKELHEETVRKLLALHMYDCARANKAMSAWGVEARVPFLDKKFLDVAMRINPQDKMCGNGKMEKHILRECFEAYLPASVAWRQKEQFSDGVGYSWIDTLKEVAAQQVSDQQLETARFRFPYNTPTSKEAYLYREIFEELFPLPSAAECVPGGPSVACSSAKAIEWDEAFKKMDDPSGRAVGVHQSAYK
B2: UGT1A9 (Homo sapiens, UniProt O60656); chain GKLLVVPMDGSHWFTMRSVVEKLILRGHEVVVVMPEVSWQLGRSLNCTVKTYSTSYTLEDLDREFKAFAHAQWKAQVRSIYSLLMGSYNDIFDLFFSNCRSLFKDKKLVEYLKESSFDAVFLDPFDNCGLIVAKYFSLPSVVFARGILCHYLEEGAQCPAPLSYVPRILLGFSDAMTFKERVRNHIMHLEEHLLCHRFFKNALEIASEILQTPVTEYDLYSHTSIWLLRTDFVLDYPKPVMPNMIFIGGINCHQGKPLPMEFEAYINASGEHGIVVFSLGSMVSEIPEKKAMAIADALGKIPQTVLWRYTGTRPSNLANNTILVKWLPQNDLLGHPMTRAFITHAGSHGVYESICNGVPMVMMPLFGDQMDNAKRMETKGAGVTLNVLEMTSEDLENALKAVINDKSYKENIMRLSSLHKDRPVEPLDLAVFWVEFVMRHKGAPHLRPAAHDLTWYQYHSLDVIGFLLAVVLTVAFITFKCCAYGYRKCLGKKGRVKKAHKSKTH
B3: IYD (Homo sapiens, UniProt Q6PHW0); chain MGEPRTRAEARPWVDEDLKDSSDLHQAEEDADEWQESEENVEHIPFSHNHYPEKEMVKRSQEFYELLNKRRSVRFISNEQVPMEVIDNVIRTAGTAPSGAHTEPWTFVVVKDPDVKHKIRKIIEEEEEINYMKRMGHRWVTDLKKLRTNWIKEYLDTAPILILIFKQVHGFAANGKKKVHYYNEISVSIACGILLAALQNAGLVTVTTTPLNCGPRLRVLLGRPAHEKLLMLLPVGYPSKEATVPDLKRKPLDQIMVTV
B4: BshA Y95F (Bacillus subtilis, UniProt P42982); chain MRKLKIGITCYPSVGGSGIIATELGKQLAEKGHEIHFITSSIPFRLNTYHPNIHFHEVEVNQYAVFKYPPYDLTLASKIAEVAERENLDIIHAHFALPHAVCAYLAKQMLKRNIGIVTTLHGTDITVLGYDPSLKDLIRFAIESSDRVTAVSSALAAETYDLIKPEKKIETIYNFIDERVYLKKNTAAIKEKHGILPDEKVVIHVSNFRKVKRVQDVIRVFRNIAGKTKAKLLLVGDGPEKSTACELIRKYGLEDQVLMLGNQDRVEDLYSISDLKLLLSEKESFGLVLLEAMACGVPCIGTNIGGIPEVIKNNVSGFLVDVGDVTAATARAMSILEDEQLSNRFTKAAIEMLENEFSSKKIVSQYEQIYADLAEPE
B5: ST3GAL4 (Homo sapiens, UniProt Q11206); chain REDRYIELFYFPIPEKKEPCLQGEAESKASKLFGNYSRDQPIFLRLEDYFWVKTPSAYELPYGTKGSEDLLLRVLAITSSSIPKNIQSLRCRRCVVVGNGHRLRNSSLGDAINKYDVVIRLNNAPVAGYEGDVGSKTTMRLFYPESAHFDPKVENNPDTLLVLVAFKAMDFHWIETILSDKKRVRKGFWKQPPLIWDVNPKQIRILNPFFMEIAADKLLSLPMQQPRKIKQKPTTGLLAITLALHLCDLVHIAGFGYPDAYNKKQTIHYYEQITLKSMAGSGHNVSQEALAIKRMLEMGAIKNLTSF
B6: speck Y220A (Drosophila melanogaster, UniProt Q94521); chain MEDALTVSGKPAACPVDQDCPYTIELIQPEDGEAVIAMLKTFFFKDEPLNTFLDLGECKELEKYSLKPLPDNCSYKAVNKKGEIIGVFLNGLMRRPSPDDVPEKAADSCEHPKFKKILSLMDHVEEQFNIFDVYPDEELILDGKILSVDTNYRGLGIAGRLTERAYEYMRENGINVYHVLCSSHASARVMEKLGFHEVFRMQFADYKPQGEVVFKPAAPHVGIQVMAKEVGPAKAAQTKL
B7: LYPLA1 (Homo sapiens, UniProt O75608); chain MCGNNMSTPLPAIVPAARKATAAVIFLHGLGDTGHGWAEAFAGIRSSHIKYICPHAPVRPVTLNMNVAMPSWFDIIGLSPDSQEDESGIKQAAENIKALIDQEVKNGIPSNRIILGGFSQGGALSLYTALTTQQKLAGVTALSCWLPLRASFPQGPIGGANRDISILQCHGDCDPLVPLMFGSLTVEKLKTLVNPANVTFKTYEGMMHSSCQQEMMDVKQFIDKLLPPID
Chain of UniProt P31513 (whole entry, looked up): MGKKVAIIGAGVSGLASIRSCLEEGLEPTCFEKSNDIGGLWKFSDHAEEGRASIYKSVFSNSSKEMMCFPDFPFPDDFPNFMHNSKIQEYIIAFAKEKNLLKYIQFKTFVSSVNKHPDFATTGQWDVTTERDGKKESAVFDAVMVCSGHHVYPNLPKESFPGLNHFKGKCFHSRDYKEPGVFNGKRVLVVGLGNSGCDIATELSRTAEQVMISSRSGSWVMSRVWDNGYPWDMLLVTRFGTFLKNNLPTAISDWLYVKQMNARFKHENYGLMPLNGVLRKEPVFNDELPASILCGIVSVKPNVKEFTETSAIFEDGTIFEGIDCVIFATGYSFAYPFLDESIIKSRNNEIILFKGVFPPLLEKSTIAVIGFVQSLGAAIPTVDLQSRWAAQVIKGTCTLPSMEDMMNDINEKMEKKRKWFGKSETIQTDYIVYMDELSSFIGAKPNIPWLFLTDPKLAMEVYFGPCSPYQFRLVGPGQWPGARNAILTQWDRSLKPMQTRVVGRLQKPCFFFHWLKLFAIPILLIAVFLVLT
Chain of UniProt Q03468 (whole entry, looked up): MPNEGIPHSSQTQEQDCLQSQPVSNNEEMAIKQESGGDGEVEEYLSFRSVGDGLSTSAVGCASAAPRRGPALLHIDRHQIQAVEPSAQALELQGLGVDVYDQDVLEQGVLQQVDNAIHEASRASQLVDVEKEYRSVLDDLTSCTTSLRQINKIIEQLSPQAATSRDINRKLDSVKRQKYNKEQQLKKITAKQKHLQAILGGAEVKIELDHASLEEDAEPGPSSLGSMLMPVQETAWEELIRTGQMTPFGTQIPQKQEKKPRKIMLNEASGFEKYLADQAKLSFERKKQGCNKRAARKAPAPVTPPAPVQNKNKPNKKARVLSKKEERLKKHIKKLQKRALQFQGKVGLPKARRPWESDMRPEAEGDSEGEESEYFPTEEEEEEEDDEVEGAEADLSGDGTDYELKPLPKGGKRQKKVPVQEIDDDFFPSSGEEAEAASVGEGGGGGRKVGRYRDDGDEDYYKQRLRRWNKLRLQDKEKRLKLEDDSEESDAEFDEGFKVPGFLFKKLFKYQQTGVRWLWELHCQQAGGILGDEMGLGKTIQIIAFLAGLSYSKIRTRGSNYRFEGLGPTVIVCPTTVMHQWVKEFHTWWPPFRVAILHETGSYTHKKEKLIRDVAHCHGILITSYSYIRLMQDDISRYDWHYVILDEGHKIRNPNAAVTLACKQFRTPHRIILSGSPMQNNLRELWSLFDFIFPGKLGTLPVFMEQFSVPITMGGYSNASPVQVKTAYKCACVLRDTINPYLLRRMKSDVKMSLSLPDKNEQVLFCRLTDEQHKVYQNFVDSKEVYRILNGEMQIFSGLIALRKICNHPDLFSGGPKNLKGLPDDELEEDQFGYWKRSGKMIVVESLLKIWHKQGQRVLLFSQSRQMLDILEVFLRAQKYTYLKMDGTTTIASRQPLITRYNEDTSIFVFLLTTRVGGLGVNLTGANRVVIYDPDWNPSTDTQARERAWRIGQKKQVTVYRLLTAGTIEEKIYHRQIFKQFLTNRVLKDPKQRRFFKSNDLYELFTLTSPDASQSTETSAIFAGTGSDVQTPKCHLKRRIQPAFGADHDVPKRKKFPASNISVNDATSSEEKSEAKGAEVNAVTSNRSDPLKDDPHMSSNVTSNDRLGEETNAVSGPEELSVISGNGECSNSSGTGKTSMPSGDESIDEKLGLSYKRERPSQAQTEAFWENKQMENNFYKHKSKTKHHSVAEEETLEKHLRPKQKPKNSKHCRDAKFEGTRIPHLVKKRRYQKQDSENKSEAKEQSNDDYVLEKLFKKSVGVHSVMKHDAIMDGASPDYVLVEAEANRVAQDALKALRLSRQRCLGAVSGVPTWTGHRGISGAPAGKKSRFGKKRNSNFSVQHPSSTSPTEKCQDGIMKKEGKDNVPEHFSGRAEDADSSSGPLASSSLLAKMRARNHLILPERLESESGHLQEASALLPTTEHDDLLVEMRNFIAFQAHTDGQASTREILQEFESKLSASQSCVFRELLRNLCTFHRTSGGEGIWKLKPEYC

B1 (asnB E349D)
Km (N[C@@H](CC(=O)O)C(=O)O; pH 8, 37 °C, apparent, together with: L-glutamine 20 mM): 130 µM

alanine aminopeptidase (Neisseria meningitidis, UniProt Q9JYV4)
Km (NC(=O)Cc1cc(=O)oc2cc(NC(=O)[C@@H](N)C3Cc4ccccc4C3)ccc12; pH 7.5, 37 °C): 48.9 µM

B2 (UGT1A9)
Km (O=c1cc(-c2ccccc2O)oc2ccccc12; pH 7.4, 37 °C): 0.4 µM

FMO3 (Homo sapiens, UniProt P31513)
Km (CCN(CC)CCNC(=O)c1ccc(N)cc1; pH 7.4, 37 °C, together with: NADPH 2 mM): 342 µM

B3 (IYD)
Km (N[C@@H](Cc1cc(F)c(O)c(I)c1)C(=O)O; pH 7.4, 25 °C, together with: sodium dithionite 0.5%): 36 µM

B4 (BshA Y95F)
Km (CC(=O)N[C@H]1[C@@H](OP(=O)(O)OP(=O)(O)OC[C@H]2O[C@@H](n3ccc(=O)[nH]c3=O)[C@H](O)[C@@H]2O)O[C@H](CO)[C@@H](O)[C@@H]1O; pH 7.5, 21 °C, together with: malate 0–25 mM): 350 µM

B5 (ST3GAL4)
Km (CC(=O)N[C@H]1[C@H](O[C@H]2[C@@H](O)[C@@H](CO)O[C@@H](Oc3ccc([N+](=O)[O-])cc3)[C@@H]2O)O[C@H](CO)[C@@H](O[C@@H]2O[C@H](CO)[C@H](O)[C@H](O)[C@H]2O)[C@@H]1O; pH 6, together with: CMP-Neu5Ac 0.5 mM): 140 µM

B6 (speck Y220A)
Km (CC(=O)SCCNC(=O)CCNC(=O)[C@H](O)C(C)(C)COP(=O)(O)OP(=O)(O)OC[C@H]1O[C@@H](n2cnc3c(N)ncnc32)[C@H](O)[C@@H]1OP(=O)(O)O; pH 7.2, 30 °C): 400 µM

ERCC6 (Homo sapiens, UniProt Q03468)
Km (Nc1ncnc2c1ncn2[C@@H]1O[C@H](COP(=O)(O)OP(=O)(O)OP(=O)(O)O)[C@@H](O)[C@H]1O; pH 8, 30 °C, together with: Mg2+, pUC19 DNA): 16.5 µM

B7 (LYPLA1)
Km (CN(C)c1ccc(/N=N/c2ccc(C(=O)NCCCn3cc(CCCCCCCCCCCCCCCC(=O)OC[C@H](NC(=O)c4cc5ccc(O)cc5oc4=O)C(=O)N4CCOCC4)nn3)cc2)cc1; pH 7.4, 37 °C): 19.1 µM

enzyme (Brachypodium distachyon, UniProt I1HY48)
Km (NC(=O)c1ccc[n+]([C@@H]2O[C@H](COP(=O)(O)OP(=O)(O)OC[C@H]3O[C@@H](n4cnc5c(N)ncnc54)[C@H](OP(=O)(O)O)[C@@H]3O)[C@@H](O)[C@H]2O)c1; pH 8.8, 23 °C, cofactor varied): 0.72 µM

For quick reference, copied from above:
B1 (asnB E349D)
Km (N[C@@H](CC(=O)O)C(=O)O; pH 8, 37 °C, apparent, together with: L-glutamine 20 mM): 130 µM
